Experimental data collected from several papers.
Every numbered part comes from another study and shows a few of its results, in no order. Positions count from the first letter of the parent shown.

Sample 1
Target: RNA binding protein fox-1 homolog 2, RRM domain, GST-SBP tag (RBFOX2, Homo sapiens, UniProt O43251-10, residues 100-194)
Method: RNA Bind-n-Seq
Molecule type: RNA
Medium: in vitro
Tested at: 365 nM
Notes: natural RNA segment, single round, ends assumed
Reference: no-protein control
Direction: higher = stronger binding
Shared flanks, not repeated: GGGAGUUCUACAGUCCGACGAUC … UGGAAUUCUCGGGUGCCAA
Target sequence (chain): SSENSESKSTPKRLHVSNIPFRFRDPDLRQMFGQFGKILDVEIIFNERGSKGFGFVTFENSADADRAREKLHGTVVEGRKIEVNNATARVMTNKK
Sequence | RBNS enrichment (R)
GAAGCAGAGUAAAGCUUACCCCCCAAACUGUGGUCCAGCUGGACCCCUUCUUUAAUUCUUGCCUAACUUAAUUAUUUUCAGGACCCUUCAAGUGCCAGGUGGAAUUUACA | 0.695
UGAAAAAAAAAAAAAUUAUUUUGCAUUCAGCAUGGACUCGACCAGGCAUCUAUGGAGAUUAUUUUUUUGCUUCAUUUUAUAAAGUUGUAUUUAGAAAAGUCUUAAGUAUU | 0.778
AAGUUCAGCUCAAGACUACCCUACCUGCUGUGUUUGUGAGAAGAGUAGGAUCACACACACAGGUGCAAUCUUGACCACACUUACCUGCAAGAGGAGUAACCAGAGGACAC | 0.65
GGAGACUGUAGCAAGUAAGGCUAGAGAACACUUGCUCUUUACCUAGUGGUGGCGGUCACGCUAACACGUGUGAAAGGCCUUUGGCAUUUUUUAAAAAGUGCAAUCAAUAA | 0.298
AUUUUCUCAGUGUAUUUUUGUAAAAAAUAUAUAAAGGGGGUGUUAAUCGGUGUAAAUCGCUGUUUGGAUUUCCUGAUUUUAUAAUAGGGUGGCUGGUUAAUAUCUCACAC | 0.316
UUCCUUUACUCAAGGGUUUGGGGAGCAGCCCACAGGAGCGCUGCCUCCAUUUGACAUGCCUUCGGGGGCUCUGCUGGCUGCACCCCAGUUUGAGAUGCUCCAGAAUCCAC | 1.49
GUUCGUUUCCAUCAUGUCUGUAUACUCCUGUCACCUAGAACGUGCAUCCUUGUAAUACCUGAUUGAUCACACAGUGUUAGUGCUGGUCAGAGAGACCUCAUCCUGCUCUU | 0.427
UUUGUGCCCCCUUUAGGAAGGAAAAGAAUACACCUACGAUGUGCCAGGCACUGUGUUAGGCGCUUUUAUAUAGAUCCUCGUUAGGAUGAGACUAAGGGAUGAGGACAUCU | 0.229
AGGGCCUCUCCCUCGUUGUCAUGUGCACUUUCCGUCUGAGGGAACUGCAGCUGCUGGAAGGCCAGCUGCUCAGACAAUCCCCAGCAUCCCCGGAACAGACACCCCCCCCC | 0.873
UCUCUUAAUUCUCUCUUACAGUAUUUGUUUACUUUGGAUUUUUGUUUUUAAUCUCAAAAGAGAGAGAUGUGUUUAAUGGACACAAGCUGUAGUUCUCAGCAAAACUUUGU | 0.532
CAGAAGUGAACCAAGGGUUAGACGCCAGAGGUUGGGCUUCUGUUAGAGUGGCUUCAAAACAUGAGCCUUAUGGGAAGUAGCCUUAAAAAAAGAAUGGGUAUACGCAGUGA | 0.423
CUUUGCAUCAUGUUAGCCAGCCAGUAUUUACUCAUUGUUAGGAAAAUCGAGCUGUGGCUGAAGACCCGAGGCUCAGUUAGCAACCUCUGUUGUAGCUGUCAACCCAUUGG | 1.05

Sample 2
Target: Histone acetyltransferase KAT6A, both winged helices, GST fusion (KAT6A, Homo sapiens, UniProt Q92794, residues 1-181)
Method: protein binding microarray
Molecule type: double-stranded DNA, one strand shown
Medium: in vitro
Tested at: not given
Notes: 8-mer, flanks averaged, mean of 2 arrays, mostly near background
Reference: not given
Direction: higher = stronger binding
Residues (chain): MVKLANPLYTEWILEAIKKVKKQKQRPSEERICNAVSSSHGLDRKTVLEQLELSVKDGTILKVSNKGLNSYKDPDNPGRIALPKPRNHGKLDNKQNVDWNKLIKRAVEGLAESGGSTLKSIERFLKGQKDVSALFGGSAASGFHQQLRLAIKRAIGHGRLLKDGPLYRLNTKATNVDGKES
Sequence | E-score
GCTCATTA | -0.0476
CGTGGTGA | 0.105
CCGTCCAC | 0.204
ATGTTAGC | -0.0339
GGCAAACA | 0.0994
TATGCCAA | -0.147
CGTACGAG | 0.178
ATGGTGTC | -0.148
CTATTCAG | -0.187
GTTAAAAC | 0.134
CAGTGTGG | -0.171
CACTGTTA | -0.127
AAACTGCC | -0.0702
ATTCCTTG | -0.0267
CGCTGAAA | 0.13
ATTTCTTG | -0.0332
ATTTAACA | -0.153
CATCTCTC | -0.027
CGGATGCA | 0.0573
AGGGTTAT | -0.173
GCCCTCCC | -0.0274
GAAAAAGC | 0.175

Sample 3
Target: Sal-like protein 4, full length isoform B (SALL4, Homo sapiens, UniProt Q9UJQ4-2, residues 1-616)
Method: universal PBM
Molecule type: double-stranded DNA, one strand shown
Medium: in vitro
Tested at: not given
Notes: 8-mer, flanks averaged, mean of replicates
Direction: higher = stronger binding
Sequence | E-score
CAACAGCC | -0.0719
AATCGCCA | -0.0738
CCGGTCCG | -0.426
CTCTCACA | 0.0862
AGAGCGTC | -0.0977
CCATTGAA | -0.0285
CCTCCACA | -0.0659
CACAAGCA | -0.0372
CTTACACA | 0.0786
ACAGCACT | -0.00778
AGATTACA | 0.19
GGGCACAA | -0.122
CAGTCCTC | -0.131
CAGGGTTC | -0.206
GTCTGACA | -0.0951
ACTGATTG | -0.0464
ATCACCTA | -0.0538
AAGGCGAT | 0.112
CAGTGTGG | -0.0673
CCTAGCAA | 0.00471
GTGCTTCA | 0.0334
CAGCCCAG | -0.395

Sample 4
Target: Fragile X messenger ribonucleoprotein 1, C-terminal low-complexity region (Fmr1, Mus musculus, UniProt P35922)
Method: RNA Bind-n-Seq
Molecule type: RNA
Medium: in vitro
Tested at: 200 nM
Notes: whole 134-nt RNA, ends assumed
Added: 150 mM LiCl
Reference: input library
Direction: higher = stronger binding
All molecules: 7-deaza-guanosine replaces G
Shared flanks, not repeated: GGGAGUUCUACAGUCCGACGAUC … UGGAAUUCUCGGGUGUCAAGG
Sequence | log2 enrichment
GUCCUGUGCUACACAUCGUAUGUACCGAAUCGGUUUUUGGGUUUUUGGGUUUUUGGGGAAAGUAUUAUGUUACGCCGUUCGGAUCUGCAC | -0.774
AGUCCUGUGCUACACAUCGUAUGUACCGAAUCAAACCCAAACCCCCAAAUUUUUAAAAAAGUAUUAUGUUACGCCGUUCGGAUCUGCACU | 1.39
GAGCAAAGAGCCAUUCAGCUUCAGUCUUUACAUACCAUGAAUAAAACAUUAAAACAUCAUAUGGAGAAGUUUACAUGGUGAUUGUUCACC | 0.372
UUCACAGCCAGCAGGCAUUGGAAUAUGGCACCAAACUCGUUGGAGGAACCACUCCAGGGAAAGGAGGCCAGACACAUCUGGGCUUACCUG | -0.0809
UCCUCAAGUCCUGUGCUACACAUCGUAUGUACCGAAUCGGUUUGGAGGAGGAAAGUAUUAUGUUACGCCGUUCGGAUCUGCACUUCCAGC | -2.11
UGGGAGGUGGAUUUUGUUUAUUUUUUUAGCUCAUUUCCAGGGGUGGGAAUUUUUUUUUAAUAUGUGUCAUGAAUAAAGUUGUUUUUGAUA | -0.2
ACCAUGCAGGUGGGCAUCUUUGGGAAGUCGGGCAAGGGGGGGAUAGGGAGGGGGGUAACACUUUGGGAACAGGUGGUCCCAGGUCGUUUC | 1.86
UGCAGCUGCUGGCCGCCUCCUAUGACCUGCACCGCUACUUCUACACGGGUGCCGAGAUCCUGGGCCUCAUCGACGAGAAGCACCGCGAGC | 1.08
CUGUGCUACACAUCGUAUGUACCGAAUCGGGGAAAAAGGGGAAAAAGGGGAAAAAAAGGGGAAAGUAUUAUGUUACGCCGUUCGGAUCUG | 1.33
UCUGGACAUGCAGGUGGACCAGUCAGUGCCAGAGUAAGUUGUUGUUUUCUUAAAAGAAAAAAAAAAAUGUAAAAUCAUCUAACCCUAACC | -0.619
GUCCUGUGCUACACAUCGUAUGUACCGAAUCAAACCCCCCCAAACCCCCAAAUUUAAAAAAGUAUUAUGUUACGCCGUUCGGAUCUGCAC | 1.2

Sample 5
Target: RING finger protein unkempt homolog, zinc fingers 1-6, GST-SBP tag (UNK, Homo sapiens, UniProt Q9C0B0, residues 30-357)
Method: RNA Bind-n-Seq
Molecule type: RNA
Medium: in vitro
Tested at: not given
Notes: RNA with constant flanks, human and mouse sites, ends assumed
Reference: input RNA pool
Direction: higher = stronger binding
Shared flanks, not repeated: GGGAGUUCUACAGUCCGACGAUC … CAACAGAGGAUUGAGCAUCA
Residues (chain): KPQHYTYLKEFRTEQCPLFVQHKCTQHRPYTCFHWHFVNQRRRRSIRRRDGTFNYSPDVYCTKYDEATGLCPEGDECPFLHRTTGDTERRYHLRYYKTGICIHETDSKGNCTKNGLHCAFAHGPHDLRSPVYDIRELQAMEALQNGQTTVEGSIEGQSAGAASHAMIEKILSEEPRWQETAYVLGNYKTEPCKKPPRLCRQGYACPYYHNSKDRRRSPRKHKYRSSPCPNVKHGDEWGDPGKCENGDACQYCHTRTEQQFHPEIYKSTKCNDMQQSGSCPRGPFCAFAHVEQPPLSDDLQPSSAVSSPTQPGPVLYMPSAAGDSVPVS
Sequence | bound/input enrichment [ratio]
CAGAAAAACUUCUUUACAGAUUUAAUUCAAGACUGGUCUAGUGACAGUCCUCCAGACAUUUUUUCAUUUGUUCCAUAUACGUGGAAUUUUAAAAUCAUGUUUCAUCAGUUUGAAAUGAUU | 0.172
AUUGAGAAGGCCCAGAACAUGUCCAAAUAUGUGUUGAUUGACACACCUGGACAGAUUGAGGUAUUCACCUGGUCAGCUUCUGGGACAAUUAUCACUGAAGCCCUUGCAUCCUCAUUUCCA | 0.106
AUUCAGAACAGCAACAAAAAAAUAUUGCAGUGUCCUAAAUGUGAUAAAACAUUUGACCGAAUAGGAAAAUAUGAGAGCCACACCCGUGUUCACACAGGUGAGAAGCCCUUUGAGUGUGAU | 0.55
GGCUCUGUGAAGAAAGUCAACGAAUCCUCACUAAAUUGGCCCCAGUUGGAGAAUAUCGGCAACUUCAUUAAAGCUAUCCAGGCUUACGGUAUGAAGCCCCAUGAUAUAUUUGAAGCAAAC | 0.187
AGCAAAGAUGCCAAGGUUCCUUCUCCUCCUCCAGGACAUAAGUGGAAAGAAGUCCGGCAUGAUAACAAGGUUACUUGGCUGGUUUCCUGGACAGAGAACAUCCAAGGUUCCAUUAAAUAC | 0.0629
GUACAACUAAUGCUGCUCCAGGAGCGCAGCUCAGUAGCAGAGCAUAUGCUUAGCAUGUGCUUAGCAUGCUCAGGGACUUGAAUUCAGUCUCCCAUGACAAAGAAAAGGGGGUGGGCCAGA | 0.281
AACAAUCCAUAUGCAACUGAAGAAGAAAAUUCAAAUGAGCUCAGUAUAAAUACUGAAGUGUAUUCCUUACCGUCAAAGAAGCUAGUGGUGCUUCAGUUAAGGUCCAUCUUUAUUAAGUAC | 0.222
GUCUUGUAUAGCAAUAUGCUUGGAGAGGAGAAUACUUAUCUCUGGCGCACAUCACUAUAUUUGGCUGCCUCUGCCAGUGCUGAAUUCUUUGCUGACAUUGCCCUGGCUCCUAUGGAAGCU | 0.257
AAGAACAUGCUCCUAUAAGAAGUAGUUUGAAUAGCCAACCACCCACAGAGGAAAAGGAAAUCAAGUUAAAAAAUAGACAUUCAUUGGAAAUAUCGUCUGCUCUGAAUAUGUUUAACAUUG | 2.72
ACUGACACCAUGAUUCAGACUCCUGGCCCCCUGCCAGCACCACAACUCACAUCCACUGUACUGCGGGAGAACAGUCGGCCCAUGGGAGACCAGAUUCAAGAACCUGAGUCUGAACAUGGU | 0.15
GCAGGAUCUUCUAAGUACCAGUGGGACAUUAUGAAAUCCCUUGGGCUCUCUGAUGACGACAUAGUGAAGUUUUCUGAAGCAGAGCACUGGCUUGAUUAUUUCCCACCACUGGCCGUUCAG | 0.132

Sample 6
Target: CCNA1, cyclin fold, Cln2 fusion (human)
Method: yeast growth competition, sequencing
Medium: yeast
Notes: weak parent motif
Reference: not given
Direction: higher = stronger binding
Starting sequence: E2F8 docking peptide (human); FVPQRKLEVSTED; partner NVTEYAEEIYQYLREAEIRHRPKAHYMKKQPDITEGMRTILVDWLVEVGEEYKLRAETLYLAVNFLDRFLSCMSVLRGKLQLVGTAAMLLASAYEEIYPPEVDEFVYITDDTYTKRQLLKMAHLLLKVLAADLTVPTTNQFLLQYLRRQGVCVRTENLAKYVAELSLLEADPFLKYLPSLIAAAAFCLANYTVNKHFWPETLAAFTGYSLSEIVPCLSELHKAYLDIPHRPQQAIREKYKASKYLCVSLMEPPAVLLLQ
Variant | normalised enrichment score
R5K | 0.162
R5A L7A | 0.139
E12A | 0.152
V2A | 0.43
D13A | 0.131
V9F | 0.0933
T11A | 0.261
V9L | -0.0206
S10A | 0.414
P3A | 0.0556
F1A | 0.254

For quick reference, copied from above (sample 6):
Variant | normalised enrichment score
R5A L7A | 0.139
P3A | 0.0556
D13A | 0.131
S10A | 0.414
R5K | 0.162
V2A | 0.43
F1A | 0.254
E12A | 0.152
V9F | 0.0933
T11A | 0.261
V9L | -0.0206
